Results pooled from the literature.
Every numbered part comes from another study and shows a few of its results, in no order. Changes are numbered by the printed parent chain.

Series 1
Target: RNA binding protein fox-1 homolog 2, RRM domain, GST-SBP tag (RBFOX2, Homo sapiens, UniProt O43251-10, residues 100-194)
Technique: RNA Bind-n-Seq
Form: RNA
Matrix: in vitro
Concentration: 365 nM
Notes: natural RNA segment, single round, ends assumed
Baseline: no-protein control
Direction: higher = stronger binding
Target sequence (chain): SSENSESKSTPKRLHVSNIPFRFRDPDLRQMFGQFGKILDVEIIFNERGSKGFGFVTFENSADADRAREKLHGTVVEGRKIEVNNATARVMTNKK
Oligonucleotide	RBNS enrichment (R)
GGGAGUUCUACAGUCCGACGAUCGACUUUUGUGUUAAGGAUGUGUUGUGUGCUGGUAGAUGUUCAGGAGUGGCUCUGACCCCCAACCUACUCUGGGCACCUUCCUACCCCCAUCUCUCCAGCAACAAUAACCUUGGAAUUCUCGGGUGCCAA	0.454
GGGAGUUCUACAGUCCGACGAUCGACUUCCGUGCUGACUAAGCUGUGGCUCAGCAUUCCAUUGCACACUGGUGAAGUGAGUAGGGAUUGUUCCCAGGCAAGCAGCCGUACUCGUCAUGUUUUCUGCGGAAAAGUGGAAUUCUCGGGUGCCAA	0.305
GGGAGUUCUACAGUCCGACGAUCUACCGAGAAGGUCUAAGUAAAACAACGCAAGAUCAGCUCUUUCAGACUCUUAUCCAGAGGGCUCAGAGACAGAGUGUUCUUUCAUUUGUACCGCCCUCUCAGUUCAACUUUGGAAUUCUCGGGUGCCAA	0.217
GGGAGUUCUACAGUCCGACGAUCGUGGCUCUGCCACCCUGCAGGCAGCCCUCUUGGCCUAGUUUUCCUGGCAUAGGGUGAGGCACAGCUUGAAAGGUGGUCAGACCUGCUUGGGCUUCUUUGCUUUUCAAAUGUGGAAUUCUCGGGUGCCAA	0.264
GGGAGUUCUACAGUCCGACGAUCCUUGCUUGUCUGCAUUUAUUAGUGGUAAUAUUCUUUUACGUAUAAUAAAUUUUUAUACCCAAGCCUUUGAUGGUCUCCUCCUCGGGUGUGACUCCAAGGACAGGCAAGUGUGGAAUUCUCGGGUGCCAA	0.476
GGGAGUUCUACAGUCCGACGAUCCAGAUGAAUAUCUGACAAAGCAGUGGAGGUAUCCGAUUGAGCUUCAUGGCAUUGGUAAAUAUGGCAACGACUCCUACCGGAUCUUUUGUGUCAAUGAAUGGAAGCAGGUGUGGAAUUCUCGGGUGCCAA	1.02
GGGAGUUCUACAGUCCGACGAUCUCUUGGAAAGGUUCUAUUCCUGAUCUCCAGCUGUGGUGAGCAAGUUUCCUGAAGUGUUUAUUUUCUCUCAUAUCCACCAAACGUGAAUCCUGUUCCUGAUGGCCCGUUAUUGGAAUUCUCGGGUGCCAA	0.418
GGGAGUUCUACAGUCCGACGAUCUCAGCCCAUGCCCAGCUGUCAGGAGAGAGGUGCAGGGAGGAAGGCCUUGUGCUGGGACAACCUCUCUCUUGCCUUACCUCAGAGAGGGACUAUGCCCUGACCCCUCCUUUUGGAAUUCUCGGGUGCCAA	0.517

Series 2
Target: CRIPT, C-terminal peptide
Technique: DHFR complementation, deep sequencing
Matrix: yeast
Notes: single substitutions, model-inferred values
Baseline: wild type
Direction: higher = weaker binding
Parent: ERBIN, PDZ domain 1 (human); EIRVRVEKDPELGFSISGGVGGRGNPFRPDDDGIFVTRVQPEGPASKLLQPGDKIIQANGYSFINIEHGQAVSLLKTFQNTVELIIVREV; partner TKNYKQTSV
Substitution	binding free energy change [kcal/mol]
Q50P	0.0363
D53C	0.307
I56S	0.12
Q50N	0.0782
S17Y	1.04
S15F	0.485
S17K	1.7
A58Q	0.84
T81R	0.0395
G43L	0.943
E1M	0.203
I64N	0.0164
I64L	-0.0219
V6P	0.685
S73G	0.0587
L48D	0.171
R88F	1.45
Q40C	0.266
Y61T	0.0714
Q40L	0.123
E11T	-0.198
P10A	-0.54

Series 3
Target: NFE2, bZIP domain (human)
Technique: DHFR protein complementation
Matrix: yeast
Notes: single substitutions, most at no-binding floor
Baseline: wild-type JUN-FOS pair
Direction: higher = stronger binding
Parent: JUN, bZIP domain (human); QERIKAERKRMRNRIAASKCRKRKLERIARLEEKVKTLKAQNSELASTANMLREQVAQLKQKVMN; partner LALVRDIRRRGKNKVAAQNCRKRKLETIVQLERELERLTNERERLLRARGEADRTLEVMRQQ
Substitution	binding fitness
A29W	-1.51 natural log
Q41K	-1.33 natural log
S47E	-1.38 natural log
E32N	-1.41 natural log
V35M	-1.48 natural log
N42Q	-1.5 natural log
K34R	-1.43 natural log
A49K	-1.59 natural log
A40R	-1.39 natural log
E54P	-1.46 natural log
L38P	-1.52 natural log
K34A	-1.48 natural log
I28V	-1.48 natural log
V35G	-1.46 natural log
M51W	-1.49 natural log
A40W	-1.45 natural log
A29R	-1.32 natural log
K36V	-1.43 natural log
A49W	-1.36 natural log
E44M	-1.54 natural log

Series 4
Target: CCNB3, cyclin fold, Cln2 fusion (human)
Technique: yeast growth competition, sequencing
Matrix: yeast
Notes: weak parent motif
Baseline: not given
Direction: higher = stronger binding
Parent: ITGB3BP docking peptide (human); MPVKRSLKLDGLL; partner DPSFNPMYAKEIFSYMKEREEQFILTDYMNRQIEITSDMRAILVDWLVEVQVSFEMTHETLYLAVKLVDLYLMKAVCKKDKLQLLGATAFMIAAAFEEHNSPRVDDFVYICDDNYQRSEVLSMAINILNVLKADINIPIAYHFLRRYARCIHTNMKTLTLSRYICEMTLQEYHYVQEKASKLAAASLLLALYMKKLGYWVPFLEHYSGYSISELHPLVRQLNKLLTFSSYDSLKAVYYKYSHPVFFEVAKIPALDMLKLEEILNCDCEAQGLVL
Substitution	normalised enrichment score
MPVKRSLKLAGLL [D10A]	-0.104
MPVKRALKLDGLL [S6A]	0.525
MAVKRSLKLDGLL [P2A]	0.232
MPVKRSAKLDGLL [L7A]	0.141
MPVKKSLKFDGLL [R5K L9F]	0.502
MPAKRSLKLDGLL [V3A]	0.534
MPVKKSLKLDGLL [R5K]	0.181
MPVKASAKLDGLL [R5A L7A]	0.0109
MPVKRSLKLDGAL [L12A]	0.327
MPVKASLKLDGLL [R5A]	0.041
